{"data": "Assay results gathered from unrelated publications", "note": "Parts stem from different laboratories: compare values within a part only. Changes are numbered by the printed parent chain."}
{"data": "Sample 1", "target": "ABI1, truncated, D143A, DHFR fusion (Arabidopsis thaliana)", "technique": "DHFR PCA, deep sequencing", "matrix": "yeast", "notes": "methotrexate growth selection, single substitutions", "together with": "(+)-ABA 2500 µM", "baseline": "wild-type fitted maximum", "reading": "higher = stronger binding", "starting sequence": "PYL1, truncated, DHFR fusion (Arabidopsis thaliana); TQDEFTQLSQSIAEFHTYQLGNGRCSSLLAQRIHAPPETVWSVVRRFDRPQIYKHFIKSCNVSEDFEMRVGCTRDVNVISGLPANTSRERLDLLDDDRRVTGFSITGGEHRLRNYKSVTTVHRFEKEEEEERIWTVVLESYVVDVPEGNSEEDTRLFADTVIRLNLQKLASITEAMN"}
{"Substitution": "V43K", "relative binding score [%]": 93.4}
{"Substitution": "S11D", "relative binding score [%]": 99.2}
{"Substitution": "K58V", "relative binding score [%]": 87.6}
{"Substitution": "E89F", "relative binding score [%]": -14}
{"Substitution": "R99T", "relative binding score [%]": 99.4}
{"Substitution": "V137Y", "relative binding score [%]": 19.4}
{"Substitution": "S11L", "relative binding score [%]": 89.6}
{"Substitution": "V142R", "relative binding score [%]": 91.2}
{"Substitution": "I33M", "relative binding score [%]": 91.3}
{"Substitution": "F103K", "relative binding score [%]": -10.2}
{"Substitution": "S9F", "relative binding score [%]": 97.5}
{"Substitution": "S140R", "relative binding score [%]": 48.9}
{"Substitution": "T119A", "relative binding score [%]": 83.7}
{"Substitution": "R155W", "relative binding score [%]": 68.3}
{"Substitution": "R163C", "relative binding score [%]": 75.7}
{"Substitution": "C25E", "relative binding score [%]": 65.9}
{"Substitution": "E89C", "relative binding score [%]": 12.9}
{"Substitution": "T119S", "relative binding score [%]": 92.9}
{"Substitution": "E125V", "relative binding score [%]": 105}
{"Substitution": "C60S", "relative binding score [%]": 86.8}
{"Substitution": "V121S", "relative binding score [%]": 31.4}
{"data": "Sample 2", "target": "Centromere-binding protein 1, full length, N-terminal tag (CBF1, Saccharomyces cerevisiae, UniProt P17106, residues 1-351)", "technique": "protein-binding microarray", "form": "double-stranded DNA, one strand shown", "matrix": "in vitro", "concentration": "0.8 µM", "notes": "whole 60-bp probe, no competitor", "reading": "higher = stronger binding", "shared flanks, not repeated": "… GTCTTGATTCGCTTGACGCTGCTG", "chain of UniProt P17106 (whole entry, looked up)": "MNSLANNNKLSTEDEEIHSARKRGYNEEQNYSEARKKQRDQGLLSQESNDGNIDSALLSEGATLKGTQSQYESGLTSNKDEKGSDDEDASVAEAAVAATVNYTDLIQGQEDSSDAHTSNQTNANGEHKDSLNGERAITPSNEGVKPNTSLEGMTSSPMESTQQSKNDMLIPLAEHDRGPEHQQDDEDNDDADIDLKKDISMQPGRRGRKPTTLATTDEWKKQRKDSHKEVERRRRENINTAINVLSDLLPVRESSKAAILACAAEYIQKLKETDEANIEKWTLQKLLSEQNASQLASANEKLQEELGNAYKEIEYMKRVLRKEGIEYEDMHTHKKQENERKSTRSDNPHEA"}
{"Strand": "GAATAATACGCAGGTGACGTTTGATAATGTGAATAG", "fluorescence intensity": "1280 a.u."}
{"Strand": "GAATCTCGTCAAGATCAGCAGAAACACACACACTAG", "fluorescence intensity": "549 a.u."}
{"Strand": "CCTAACTACTATAATAATCACACATAGCTTCGTACA", "fluorescence intensity": "546 a.u."}
{"Strand": "GAAGTCAACTCCATTCACATGCATCAGTTGAAATAG", "fluorescence intensity": "626 a.u."}
{"Strand": "CCTAACTACTATACCGGCGTGCAATAGCTTCGTACA", "fluorescence intensity": "518 a.u."}
{"Strand": "GAACAGATGGGATGACATGTGAAAAGTGTAACATAG", "fluorescence intensity": "639 a.u."}
{"Strand": "CTATACGGACATAAGAACGTGCCGCCCATTCTGTTC", "fluorescence intensity": "658 a.u."}
{"Strand": "GAATAGGTTGTCGTCAATCACATGTAAATATCATAG", "fluorescence intensity": "1500 a.u."}
{"Strand": "CCTAACTACTATAATATTATTAAATAGCTTCGTACA", "fluorescence intensity": "529 a.u."}
{"Strand": "GAATTATATGTGTATTACGTGATATACAGTGACTAG", "fluorescence intensity": "613 a.u."}
{"Strand": "CTAGGAATAGCACATGGTGATGGTACAACAATGTTC", "fluorescence intensity": "724 a.u."}
{"Strand": "CTACTCTGTACACCTCACGCTAAATAGCTGCTATTC", "fluorescence intensity": "508 a.u."}
{"Strand": "TGTACGAAGCTATACCATGTGATTATAGTAGTTAGG", "fluorescence intensity": "2120 a.u."}
{"Strand": "GAACCTTCCTTTTTATTCGTGATGTTGAGTAAGTAG", "fluorescence intensity": "562 a.u."}
{"Strand": "CTACGCCATGTCCAACACGTTGCTGGCCGCAAATTC", "fluorescence intensity": "544 a.u."}
{"Strand": "CTACTAAATTAGTATGGCGTGTTGCATAGAAGGTTC", "fluorescence intensity": "610 a.u."}
{"data": "Sample 3", "target": "Sal-like protein 4, full length isoform A (SALL4, Homo sapiens, UniProt Q9UJQ4, residues 1-1053)", "technique": "universal PBM", "form": "double-stranded DNA, one strand shown", "matrix": "in vitro", "concentration": "600 nM", "notes": "8-mer, flanks averaged, mean of replicates", "reading": "higher = stronger binding", "chain of UniProt Q9UJQ4 (whole entry, looked up)": "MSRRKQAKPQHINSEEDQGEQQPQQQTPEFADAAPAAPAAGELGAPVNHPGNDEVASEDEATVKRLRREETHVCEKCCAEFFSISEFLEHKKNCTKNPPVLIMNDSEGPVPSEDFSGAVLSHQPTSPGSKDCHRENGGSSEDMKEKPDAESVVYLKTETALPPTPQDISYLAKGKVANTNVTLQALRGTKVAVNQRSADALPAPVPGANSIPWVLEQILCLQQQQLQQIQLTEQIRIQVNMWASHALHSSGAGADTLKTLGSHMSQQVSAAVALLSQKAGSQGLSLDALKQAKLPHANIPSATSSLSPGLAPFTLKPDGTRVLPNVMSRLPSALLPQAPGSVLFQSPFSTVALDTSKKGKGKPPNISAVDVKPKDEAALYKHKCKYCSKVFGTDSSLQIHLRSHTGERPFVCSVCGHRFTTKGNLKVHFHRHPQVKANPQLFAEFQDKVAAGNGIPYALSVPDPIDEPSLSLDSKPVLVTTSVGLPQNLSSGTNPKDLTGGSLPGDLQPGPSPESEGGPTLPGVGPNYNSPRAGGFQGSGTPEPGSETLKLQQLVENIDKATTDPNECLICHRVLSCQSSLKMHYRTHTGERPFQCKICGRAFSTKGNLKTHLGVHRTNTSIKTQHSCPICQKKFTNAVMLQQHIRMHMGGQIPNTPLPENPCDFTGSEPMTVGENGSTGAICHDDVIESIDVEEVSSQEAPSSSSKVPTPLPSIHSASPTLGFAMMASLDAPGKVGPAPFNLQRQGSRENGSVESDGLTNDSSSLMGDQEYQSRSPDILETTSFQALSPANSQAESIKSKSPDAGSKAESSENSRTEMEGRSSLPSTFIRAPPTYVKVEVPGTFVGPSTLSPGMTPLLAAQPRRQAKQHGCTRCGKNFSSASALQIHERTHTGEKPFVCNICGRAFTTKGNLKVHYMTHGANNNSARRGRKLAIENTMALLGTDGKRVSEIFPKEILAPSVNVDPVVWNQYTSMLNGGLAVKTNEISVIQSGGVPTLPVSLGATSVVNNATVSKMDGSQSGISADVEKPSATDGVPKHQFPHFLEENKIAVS"}
{"Strand": "ATAGGTCA", "E-score": 0.216}
{"Strand": "CCATATCC", "E-score": 0.0271}
{"Strand": "GATTGGCC", "E-score": -0.139}
{"Strand": "ACACAGGC", "E-score": 0.0187}
{"Strand": "ACATGACA", "E-score": 0.17}
{"Strand": "ACATTTCA", "E-score": 0.288}
{"Strand": "CGCCGATA", "E-score": -0.136}
{"Strand": "CGTCAGAA", "E-score": -0.0421}
{"Strand": "ACCGTCGC", "E-score": -0.252}
{"Strand": "AAGTCCCT", "E-score": -0.00726}
{"Strand": "ACCGCTAC", "E-score": -0.229}
{"Strand": "GGTATTCA", "E-score": 0.154}
{"Strand": "ACTTTCGC", "E-score": 0.0325}
{"Strand": "GCAGTTCA", "E-score": -0.0891}
{"Strand": "CTTAGGCC", "E-score": -0.271}
{"Strand": "CGTGATAG", "E-score": -0.0447}
{"Strand": "AATACTTG", "E-score": 0.212}
{"Strand": "AGCGTACT", "E-score": -0.121}
{"Strand": "ACCTCGCC", "E-score": -0.344}
{"Strand": "CTCAGACA", "E-score": 0.0969}
{"data": "Sample 4", "target": "RING finger protein unkempt homolog, zinc fingers 1-6, GST-SBP tag (UNK, Homo sapiens, UniProt Q9C0B0, residues 30-357)", "technique": "RNA Bind-n-Seq", "form": "RNA", "matrix": "in vitro", "concentration": "not given", "notes": "RNA with constant flanks, human and mouse sites, ends assumed", "baseline": "input RNA pool", "reading": "higher = stronger binding", "shared flanks, not repeated": "GGGAGUUCUACAGUCCGACGAUC … CAACAGAGGAUUGAGCAUCA", "Construct (chain)": "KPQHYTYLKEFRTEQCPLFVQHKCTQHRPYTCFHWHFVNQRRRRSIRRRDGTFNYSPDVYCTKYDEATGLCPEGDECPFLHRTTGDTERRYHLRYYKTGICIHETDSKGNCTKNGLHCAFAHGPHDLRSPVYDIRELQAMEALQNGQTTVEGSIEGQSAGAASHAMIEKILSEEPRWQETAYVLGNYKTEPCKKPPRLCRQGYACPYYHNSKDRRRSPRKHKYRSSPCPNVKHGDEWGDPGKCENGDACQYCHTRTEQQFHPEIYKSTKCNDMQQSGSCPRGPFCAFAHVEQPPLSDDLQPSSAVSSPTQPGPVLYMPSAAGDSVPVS"}
{"Strand": "ACAUCCGCAAGAAGACCAGACUGCUGGUGGUGUUACAAGGCUACACAGAUGUUAUUGAUGUUGUCCAGGCCCUGCAGACCCACCCAGACUCAAAUGUCAAGGCCUCCUUCACCAUUGGUG", "bound/input enrichment [ratio]": 0.0784}
{"Strand": "UUGGGGUAACGUGCACUGUAAGACGUAUGUAACAUGAUGUUAACUUUGUGGUCUAAAGUGUUUAGCUGUCAAGCCGGAUGCCUAAGUAGACCAAAUCUUGUUAUUGAAGUGUUCUGAGCU", "bound/input enrichment [ratio]": 0.138}
{"Strand": "UCGGUUUUACACUCGGGAAGCAUUAACAGUGAGACACUAUUGUUUUUCUACUUGUGUGUGUAGUACAGGAAUUAUUCAGAUGCCACGUUUGAAUAAUUCAGAGUGAUGUUAUCUGUGAUA", "bound/input enrichment [ratio]": 0.149}
{"Strand": "AUUUGCUAUUUUCUAUUAAACAUGUGACAUUAUUAUCUCUUCCUCUAGAGAUGUGAUACCUCAAAGCACAGAGUUCUGGUUGUGUCUGUGUGUCCUCAGUCUCUACCUUAUUUUGCUGCU", "bound/input enrichment [ratio]": 1.85}
{"Strand": "AAGAAUUUCAAAGGUACUAUUGAAGAACUGGCUUCAAAUCAGUAUGUGAUUAAUGGAGAAGUAGCUAUUCUGGAUUCUACAACCAUUGAAAUCUCAGAGCUUCCCAUCCGAACGUGGACU", "bound/input enrichment [ratio]": 0.174}
{"Strand": "UAUGCAUUUAUAUAACUGUUUUGUUAUUUGAAUCUUGGAAAACUAGUUUUAUUAUAUUCAGAUAGCCUUGUUUUUUAAAAAGGCCUUUGCAUACACCUUUAUGAGAUAGUGUAAAAUUGA", "bound/input enrichment [ratio]": 30.9}
{"Strand": "AAUGUGGCAUUCAUGAGCUACUUUUUACAGGGCAAGGUUGAUGCCUGCCUAGAGCUCUUAAUUAGAACUGGACGGCUGCCAGAAGCUGCCUUCUUGGCCCGAACUUACUUACCCAGUCAG", "bound/input enrichment [ratio]": 0.353}
{"Strand": "UUGUAGAAACUGCCCCAGGACUUGGCUUUGUGGGAAUUUGUACACCCCACCUCCCUUUUUGACAAAAUUAUCUGAACUCAAUAUCUAGUGCAUAAAGAAUUUUUGUCAAAUGGGUACAUU", "bound/input enrichment [ratio]": 0.788}
{"Strand": "GCGGUCAUUUUCGGGCCUGAAGGGACCCCGUUUGAGGAUGGAACAUUUAAACUUACAAUAGAAUUCACUGAAGAAUAUCCAAAUAAACCACCUACAGUUAGAUUUGUCUCUAAGAUGUUC", "bound/input enrichment [ratio]": 1.85}
{"Strand": "AAGGAUUUGGAAUCUAUUGAUACUGAAUUUUACAACUCUCUAAUCUGGAUAAGAGAUAACAAUAUUGAAGAAUGUGGCUUAGAAAUGUACUUUUCUGUAGACAUGGAGAUUCUGGGAAAA", "bound/input enrichment [ratio]": 0.249}
{"Strand": "AUUUUAAGUAAGCCUUUAUCUUAAUCGUGUUUCAUGUUUUUUCAGAAAACAAGCAACAUUUUUCAUUGCACAUAAACAUGUAAAAUUCUUGCAUGCCACUGGUCAUAAUGGCUUACCAGU", "bound/input enrichment [ratio]": 0.234}
{"data": "Sample 5", "target": "Histone acetyltransferase KAT6A, both winged helices, GST fusion (KAT6A, Homo sapiens, UniProt Q92794, residues 1-181)", "technique": "protein binding microarray", "form": "double-stranded DNA, one strand shown", "matrix": "in vitro", "concentration": "not given", "notes": "8-mer, flanks averaged, mean of 2 arrays, mostly near background", "baseline": "not given", "reading": "higher = stronger binding", "Construct (chain)": "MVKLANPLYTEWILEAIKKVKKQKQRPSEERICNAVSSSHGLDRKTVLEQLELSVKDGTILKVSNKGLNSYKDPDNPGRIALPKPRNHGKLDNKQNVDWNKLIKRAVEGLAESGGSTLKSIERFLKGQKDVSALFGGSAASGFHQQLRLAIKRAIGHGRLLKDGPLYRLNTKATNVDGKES"}
{"Strand": "CCCACGAA", "E-score": -0.124}
{"Strand": "AGTCCCCG", "E-score": 0.0523}
{"Strand": "CTCAATGC", "E-score": 0.0472}
{"Strand": "AGATACAA", "E-score": 0.00447}
{"Strand": "CTGAATTC", "E-score": -0.13}
{"Strand": "GGTCTCAC", "E-score": 0.0139}
{"Strand": "ACAAGCGT", "E-score": 0.00161}
{"Strand": "ATGGTGAC", "E-score": -0.154}
{"Strand": "CCTGAACG", "E-score": -0.0331}
{"Strand": "CTCTGCAG", "E-score": -0.166}
{"Strand": "TACGCCGA", "E-score": 0.261}
{"Strand": "CGAGCGCC", "E-score": 0.234}
{"Strand": "CGTGATAA", "E-score": 0.0927}
{"Strand": "TGAACCAA", "E-score": -0.229}
{"Strand": "CGTCATCA", "E-score": 0.0508}
{"Strand": "ACTAACAT", "E-score": -0.0604}
